Measurements pooled from the literature.
Lines come from different studies, so protocols differ. “And” joins repeats or separate records; there may be more than shown. Numbers after ± are the reported error.

CO[C@]12C[C@@H](COC(=O)c3cncc(Br)c3)CN(C)[C@@H]1Cc1cn(C)c3cccc2c13 — EC20 (mitochondrial swelling; BALB/cByJ female mouse liver mitochondria; 30 min, with: succinate + rotenone; baseline: CaCl2 maximal swelling): 170 µM
COc1cc2ncnc(Nc3ccc(F)c(Cl)c3)c2cc1NC(=O)/C=C/CN1CCCCC1 — IC50 (poziotinib M2 formation, inhibitor; human liver microsomes; 50 min, pH 7.4, with: poziotinib 100 µM): 0.34 µM
Cn1c(=O)c2c(ncn2C)n(C)c1=O — intrinsic hepatic clearance (parallel tube model; human; from oral clearance): 16 L/h and 16.1 L/h
COc1cc(/C=C/C(=O)CC(=O)/C=C/c2ccc(O)c(OC)c2)ccc1O — EC20 (cytochrome c release, ELISA; BALB/cByJ female mouse liver mitochondria; 30 min; baseline: alamethicin maximal release): > 200 µM
Nc1ccn([C@@H]2O[C@H](CO)[C@@H](O)C2(F)F)c(=O)n1 — AUC(0-inf) (BALB/c mouse, female, plasma; intravenous, 4 mg/kg): 11200 ± 2820 ng·h/mL
COc1ccc2c(c1)c(CC(=O)O)c(C)n2C(=O)c1ccc(Cl)cc1 — EC20 (mitochondrial swelling; BALB/cByJ female mouse liver mitochondria; 30 min, with: succinate + rotenone; baseline: CaCl2 maximal swelling): > 800 µM
CC[C@H](C)[C@H](NC(=O)[C@H](Cc1ccccc1)NC(=O)[C@H](CCC(=O)O)NC(=O)[C@H](CCCCNC(=O)COCCOCCNC(=O)COCCOCCNC(=O)CC[C@H](NC(=O)CCCCCCCCCCCCCCCCC(=O)O)C(=O)O)NC(=O)[C@H](C)NC(=O)[C@H](C)NC(=O)[C@H](CCC(N)=O)NC(=O)CNC(=O)[C@H](CCC(=O)O)NC(=O)[C@H](CC(C)C)NC(=O)[C@H](Cc1ccc(O)cc1)NC(=O)[C@H](CO)NC(=O)[C@H](CO)NC(=O)[C@@H](NC(=O)[C@H](CC(=O)O)NC(=O)[C@H](CO)NC(=O)[C@@H](NC(=O)[C@H](Cc1ccccc1)NC(=O)[C@@H](NC(=O)CNC(=O)[C@H](CCC(=O)O)NC(=O)C(C)(C)NC(=O)[C@@H](N)Cc1cnc[nH]1)[C@@H](C)O)[C@@H](C)O)C(C)C)C(=O)N[C@@H](C)C(=O)N[C@@H](Cc1c[nH]c2ccccc12)C(=O)N[C@@H](CC(C)C)C(=O)N[C@H](C(=O)N[C@@H](CCCNC(=N)N)C(=O)NCC(=O)N[C@@H](CCCNC(=N)N)C(=O)NCC(=O)O)C(C)C — absorption rate constant (healthy human; oral): 2.09 h⁻¹
NCCCC[C@@H]1NC(=O)[C@@H](Cc2c[nH]c3ccccc23)NC(=O)[C@H](c2ccccc2)NC(=O)[C@@H]2C[C@@H](OC(=O)NCCN)CN2C(=O)[C@H](Cc2ccccc2)NC(=O)[C@H](Cc2ccc(OCc3ccccc3)cc2)NC1=O — alpha half-life (radioimmunoassay; healthy human male volunteers, plasma; subcutaneous, 300 µg): 2.4 ± 0.7 h
CN[C@H](CC(C)C)C(=O)N[C@H]1C(=O)N[C@@H](CC(N)=O)C(=O)N[C@H]2C(=O)N[C@H]3C(=O)N[C@H](C(=O)N[C@H](C(=O)O)c4cc(O)cc(O)c4-c4cc3ccc4O)[C@H](O)c3ccc(c(Cl)c3)Oc3cc2cc(c3O[C@@H]2O[C@H](CO)[C@@H](O)[C@H](O)[C@H]2O[C@H]2C[C@](C)(N)[C@H](O)[C@H](C)O2)Oc2ccc(cc2Cl)[C@H]1O — bioavailability fraction (two-compartment model; Sprague-Dawley rat, plasma; intraperitoneal, 150 mg/kg/day): 0.459
C=CC(=O)N1CCC(CNc2ncnc(N)c2-c2ccc(Oc3ccccc3)cc2)CC1 — Vz/F (human, plasma; oral, 25 mg single dose, geometric mean): 621 L
CCCCCCCCCCCCCCC[C@H](O)[C@@H](N)CO — AUC (human, phase I, plasma; intravenous, 60 mg/m^2, day 1, monotherapy): 11.2 µM·h
COCCCCn1c(C(=O)N(CC(C)C)[C@@H]2CNC[C@H](C(=O)N3CCOCC3)C2)nc2ccccc21 — AUC(0-tau) (human, elderly, plasma; oral, 80 mg once daily, day 1, mean): 4940 ng·h/mL
CN1CC2CCC(C1)N2Cc1ccc(-c2cnc3[nH]cc(-c4cccc(Cl)c4)c3c2)cc1 — half-life (metabolic stability; CD-1 mouse, liver microsomes; 20 µM, pH 7.4): > 2 h
CC(=O)CCc1ccc(O)cc1 — AUC(0-12 h) (male C57BL/6J mice, low-fat diet, brain; oral, 200 mg/kg): 19.4 ± 2.42 nmol·min/g
CCCC[C@H](NC(C)=O)C(=O)N[C@H]1CCC(=O)NC[C@@H](C(=O)N[C@@H](Cc2c[nH]c3ccccc23)C(N)=O)NC(=O)[C@H](CCCNC(=N)N)NC(=O)[C@@H](Cc2ccccc2)NC(=O)[C@H](Cc2c[nH]cn2)NC1=O — CL/F (healthy human, both sexes, plasma; subcutaneous, 3.0 mg once daily, day 1, arithmetic mean): 298 mL/min
CCOc1ccc2c(c1)C(C)=CC(C)(C)N2 — residue concentration (LC-MS/MS; piglets, liver; oral, 50 mg/kg feed, 42 days, after glucuronidase): 7.5 ± 4.5 ng/g

For quick reference, copied from above:
CCCCCCCCCCCCCCC[C@H](O)[C@@H](N)CO — AUC (human, phase I, plasma; intravenous, 60 mg/m^2, day 1, monotherapy): 11.2 µM·h
COc1ccc2c(c1)c(CC(=O)O)c(C)n2C(=O)c1ccc(Cl)cc1 — EC20 (mitochondrial swelling; BALB/cByJ female mouse liver mitochondria; 30 min, with: succinate + rotenone; baseline: CaCl2 maximal swelling): > 800 µM
